Assay results from different studies.
Lines come from different studies, so protocols differ. ± marks the error that the study gave.

| SMILES | assay | system | conditions | thermodynamic solubility |
| --- | --- | --- | --- | --- |
| CC[C@H](C)[C@H](NC(=O)[C@H](Cc1ccccc1)NC(=O)[C@H](Cc1ccc(O)cc1)NC(=O)[C@@H]1CCCN1C(=O)[C@@H](N)Cc1ccc(O)cc1)C(=O)N1CCC[C@H]1C(=O)N[C@H](CCCCN)C(=O)NCC(=O)N[C@H](CCCCN)C(=O)NCC(=O)N[C@@H](CCC(=O)O)C(=O)N[C@H](C(=O)N[C@@H](CC(N)=O)C(=O)N[C@@H](CC(C)C)[C@@H](O)CC(=O)N[C@H](C(=O)N[C@@H](C)C(=O)N[C@@H](CCC(=O)O)C(=O)N1CCC[C@@H]1C(=O)N[C@@H](CCCCNC(=O)CCC(=O)O[C@H]1CC[C@@]2(C)C(=CC[C@H]3[C@@H]4CC[C@H]([C@H](C)CCCC(C)C)[C@@]4(C)CC[C@@H]32)C1)C(N)=O)C(C)C)C(C)C | – | 50 mM phosphate buffer | pH 6.5 | > 713 µg/mL |
| CCn1c(SCC(=O)Nc2ccccc2OC)nnc1-c1ccco1 | – | aqueous buffer | pH 7.4 | 43.5 µM |
| c1cc(-c2ccc3ncnc(Nc4ncco4)c3c2)cc(N2CC3(COC3)C2)c1 | – | 0.1 M phosphate buffer | pH 7.4, 25 °C | 3 µM |
| CC1(CNC(=O)[C@H](CN)NC(=O)c2ccc(-c3ccccc3)cc2)NC(=O)NC1=O (stereo partly shown) | – | aqueous buffer | pH 7.4 | 6230 µM |
| CCOc1nc2cccc(C(=O)OC(C)OC(=O)OC3CCCCC3)c2n1Cc1ccc(-c2ccccc2-c2nnn[nH]2)cc1 (stereo not shown) | shake-flask | Cremophor ELP | 37 °C, water up to 0.5% w/w | 15.6 ± 0.54 mg/g |
| CN(c1ncco1)c1ncnc2ccc(-c3cccc(N4CCOCC4)c3)cc12 | – | 0.1 M phosphate buffer | pH 7.4, 25 °C | 800 µM |
| COc1ccccc1-n1nnnc1SCC(=O)Nc1ccccc1SC | – | aqueous buffer | pH 7.4 | < 7.14 µM |
| COc1ccc2c(c1OC)C(=O)O[C@@H]2[C@H]1c2c(cc3c(c2OC)OCO3)CCN1C | shake-flask | Cremophor ELP | 37 °C, water up to 0.5% w/w | 12.8 ± 0.4 mg/g |
| CSc1ccc(S(=O)(=O)NCc2ccccn2)cc1 | – | aqueous buffer | pH 7.4 | 207 µM |
| Cc1ccc(Nc2ncnc3ccc(-c4cccc(N5CCOCC5)c4)cc23)cc1 | – | 0.1 M phosphate buffer | pH 7.4, 25 °C | 0.9 µM |
| CCOC(=O)C1=C(C)NC(C)=C(C(=O)OC)C1c1cccc(Cl)c1Cl (stereo not shown) | shake-flask | Cremophor ELP | 37 °C, water up to 0.5% w/w | 105 ± 8.22 mg/g |
| CC[C@H](C)C(=O)N1CCC(NC(=O)Nc2ccc(OC(F)(F)F)c(F)c2)CC1 | – | PEG 400 | – | 14000 µg/mL |
| CCN(CC)C(=S)SSC(=S)N(CC)CC | shake-flask | Cremophor ELP | 37 °C, water up to 0.5% w/w | 85.5 ± 3.27 mg/g |
| Cc1nc(Nc2ncnc3ccc(-c4cccc(N5CCOCC5)c4)cc23)oc1C | – | 0.1 M phosphate buffer | pH 7.4, 25 °C | 0.2 µM |
| CCC(C)n1ncn(-c2ccc(N3CCN(c4ccc(OCC5COC(Cn6cncn6)(c6ccc(Cl)cc6Cl)O5)cc4)CC3)cc2)c1=O (stereo not shown) | shake-flask | Cremophor ELP | 37 °C, water up to 0.5% w/w | 2.5 ± 0.41 mg/g |
| CN1CCN(c2cccc(-c3ccc4ncnc(Nc5ccc([N+](=O)[O-])c(C(F)(F)F)c5)c4c3)c2)CC1 | – | 0.1 M phosphate buffer | pH 7.4, 25 °C | 2 µM |
| CCc1ccccc1NC(=O)CSc1nnc(-c2cccc(OC)c2)n1C | – | aqueous buffer | pH 7.4 | 87.1 µM |
| CN1CCC(Nc2ncnc3ccc(-c4cccc(N5CCOCC5)c4)cc23)CC1 | – | 0.1 M phosphate buffer | pH 7.4, 25 °C | 930 µM |
| COCc1nn(Cc2ccc(Cn3ccccc3=O)cc2)cc1C(=O)NCc1nccc(OC)c1C | – | FaSSGF | 4 h, pH 1.6, presumed amorphous solid | 970 µg/mL |
| COc1ccc(Cl)cc1C(=O)NCCc1ccc(S(=O)(=O)NC(=O)NC2CCCCC2)cc1 | shake-flask | Cremophor ELP | 37 °C, water up to 0.5% w/w | 2.82 ± 0.58 mg/g |
| O=C(NO)[C@H]1COC(c2c[nH]c3ccc(F)cc23)=N1 | – | aqueous buffer | pH 7.4 | 36.6 µM |
| COc1c(-c2ccc3cc(NS(C)(=O)=O)ccc3c2)cc(-n2ccc(=O)[nH]c2=O)cc1C(C)(C)C | – | 50 mM sodium phosphate | 48 h, pH 7.4, 25 °C, crystalline free acid | -6.7 log S |
| CC(=O)[C@H]1CC[C@H]2[C@@H]3CCC4=CC(=O)CC[C@]4(C)[C@H]3CC[C@]12C | shake-flask | Cremophor ELP | 37 °C, water up to 0.5% w/w | 35 ± 1.23 mg/g |
| COc1cc([N+](=O)[O-])ccc1NC(=O)CN1CCOCC1 | – | aqueous buffer | pH 7.4 | 15.8 µM |
| CN1CCN(c2cccc(-c3ccc4ncnc(Nc5ncco5)c4c3)c2)CC1 | – | 0.1 M phosphate buffer | pH 7.4, 25 °C | 520 µM |
| O=C(Cn1ccc([N+](=O)[O-])n1)N1CCCc2ccccc21 | – | aqueous buffer | pH 7.4 | 294 µM |
| c1cc(-c2ccc3ncnc(NC4CCOCC4)c3c2)cc(N2CCOCC2)c1 | – | 0.1 M phosphate buffer | pH 7.4, 25 °C | 200 µM |
| O=C(CCCN1CCC(O)(c2ccc(Cl)cc2)CC1)c1ccc(F)cc1 | shake-flask | Cremophor ELP | 37 °C, water up to 0.5% w/w | 17.3 ± 0.82 mg/g |
